Assay results gathered from unrelated publications.
± gives the spread as reported.

Amino acid sequences for entries named in this document (tags omitted). Residues count along the entry.
UniProt P37136, 32-614 limits assumed: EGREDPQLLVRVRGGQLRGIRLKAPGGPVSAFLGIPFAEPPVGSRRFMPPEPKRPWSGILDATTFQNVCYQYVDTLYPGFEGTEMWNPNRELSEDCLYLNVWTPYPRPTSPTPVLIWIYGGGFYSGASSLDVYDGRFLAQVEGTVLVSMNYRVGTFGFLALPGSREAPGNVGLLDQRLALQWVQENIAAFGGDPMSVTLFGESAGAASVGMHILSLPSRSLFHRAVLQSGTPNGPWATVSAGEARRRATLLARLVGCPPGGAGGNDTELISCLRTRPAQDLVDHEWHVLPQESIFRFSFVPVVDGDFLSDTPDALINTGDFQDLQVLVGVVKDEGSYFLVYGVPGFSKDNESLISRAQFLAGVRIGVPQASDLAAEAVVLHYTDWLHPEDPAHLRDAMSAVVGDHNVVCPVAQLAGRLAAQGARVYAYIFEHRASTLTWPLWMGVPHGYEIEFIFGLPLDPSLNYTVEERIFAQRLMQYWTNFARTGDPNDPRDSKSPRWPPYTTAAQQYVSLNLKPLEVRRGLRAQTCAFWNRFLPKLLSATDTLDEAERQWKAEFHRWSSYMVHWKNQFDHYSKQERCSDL
UniProt Q9Y5Y6, 615-854 limits assumed: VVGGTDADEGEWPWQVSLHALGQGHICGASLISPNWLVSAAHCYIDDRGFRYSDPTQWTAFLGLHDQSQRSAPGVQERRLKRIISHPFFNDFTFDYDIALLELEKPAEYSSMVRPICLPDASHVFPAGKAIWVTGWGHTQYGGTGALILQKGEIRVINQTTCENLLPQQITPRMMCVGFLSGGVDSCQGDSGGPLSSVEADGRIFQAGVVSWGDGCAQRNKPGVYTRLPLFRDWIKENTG
UniProt P0DKX7, 1-373 limits assumed: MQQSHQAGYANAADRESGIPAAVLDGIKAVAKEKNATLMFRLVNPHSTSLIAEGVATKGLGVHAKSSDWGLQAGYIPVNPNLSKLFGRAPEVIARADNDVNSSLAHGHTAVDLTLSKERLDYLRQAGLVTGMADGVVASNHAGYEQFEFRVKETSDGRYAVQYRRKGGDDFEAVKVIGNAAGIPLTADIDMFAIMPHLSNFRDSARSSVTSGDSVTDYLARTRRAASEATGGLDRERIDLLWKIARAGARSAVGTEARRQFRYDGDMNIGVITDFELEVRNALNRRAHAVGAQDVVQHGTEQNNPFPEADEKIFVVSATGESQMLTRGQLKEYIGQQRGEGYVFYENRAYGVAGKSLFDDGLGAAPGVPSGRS
UniProt H0V073, 1-176: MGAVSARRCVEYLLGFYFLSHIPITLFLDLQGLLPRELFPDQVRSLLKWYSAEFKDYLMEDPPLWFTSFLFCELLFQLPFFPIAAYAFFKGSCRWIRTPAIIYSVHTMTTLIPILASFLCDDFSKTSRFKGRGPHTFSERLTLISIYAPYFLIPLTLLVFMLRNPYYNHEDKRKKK
UniProt P20035, whole entry: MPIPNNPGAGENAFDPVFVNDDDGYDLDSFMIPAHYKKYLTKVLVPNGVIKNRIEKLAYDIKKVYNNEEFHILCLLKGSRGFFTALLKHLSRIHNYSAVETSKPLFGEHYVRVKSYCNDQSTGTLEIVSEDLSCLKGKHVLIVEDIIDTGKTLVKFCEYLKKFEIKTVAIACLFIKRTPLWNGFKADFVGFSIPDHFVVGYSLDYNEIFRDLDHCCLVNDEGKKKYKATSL
UniProt Q3XYE8, 1-234: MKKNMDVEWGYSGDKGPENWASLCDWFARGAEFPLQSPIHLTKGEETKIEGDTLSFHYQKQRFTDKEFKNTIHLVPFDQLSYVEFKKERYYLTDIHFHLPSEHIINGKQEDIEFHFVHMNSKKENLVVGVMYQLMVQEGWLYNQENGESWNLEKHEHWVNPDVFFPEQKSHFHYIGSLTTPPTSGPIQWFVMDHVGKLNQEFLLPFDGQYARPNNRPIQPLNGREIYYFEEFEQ
UniProt P54292, whole entry: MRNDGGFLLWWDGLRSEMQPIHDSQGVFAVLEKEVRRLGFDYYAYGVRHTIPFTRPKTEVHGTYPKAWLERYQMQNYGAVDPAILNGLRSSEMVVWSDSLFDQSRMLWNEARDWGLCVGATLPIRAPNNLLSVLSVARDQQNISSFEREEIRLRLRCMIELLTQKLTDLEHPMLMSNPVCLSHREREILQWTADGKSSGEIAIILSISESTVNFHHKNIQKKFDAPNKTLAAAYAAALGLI
UniProt P04757, whole entry, looked up: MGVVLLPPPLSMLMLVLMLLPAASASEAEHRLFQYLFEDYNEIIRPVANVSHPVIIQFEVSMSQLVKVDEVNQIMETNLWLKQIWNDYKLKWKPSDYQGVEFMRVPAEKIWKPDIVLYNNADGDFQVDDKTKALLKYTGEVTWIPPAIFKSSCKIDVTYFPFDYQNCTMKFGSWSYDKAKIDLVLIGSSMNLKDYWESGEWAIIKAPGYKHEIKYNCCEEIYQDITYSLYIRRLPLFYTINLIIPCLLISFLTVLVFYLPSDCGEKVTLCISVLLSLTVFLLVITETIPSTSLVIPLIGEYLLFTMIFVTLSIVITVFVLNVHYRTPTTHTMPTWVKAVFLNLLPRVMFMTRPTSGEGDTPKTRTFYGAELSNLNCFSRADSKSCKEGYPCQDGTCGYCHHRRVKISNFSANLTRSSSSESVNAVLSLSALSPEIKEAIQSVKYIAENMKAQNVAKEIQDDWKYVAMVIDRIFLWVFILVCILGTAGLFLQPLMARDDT
UniProt P12390, whole entry, looked up: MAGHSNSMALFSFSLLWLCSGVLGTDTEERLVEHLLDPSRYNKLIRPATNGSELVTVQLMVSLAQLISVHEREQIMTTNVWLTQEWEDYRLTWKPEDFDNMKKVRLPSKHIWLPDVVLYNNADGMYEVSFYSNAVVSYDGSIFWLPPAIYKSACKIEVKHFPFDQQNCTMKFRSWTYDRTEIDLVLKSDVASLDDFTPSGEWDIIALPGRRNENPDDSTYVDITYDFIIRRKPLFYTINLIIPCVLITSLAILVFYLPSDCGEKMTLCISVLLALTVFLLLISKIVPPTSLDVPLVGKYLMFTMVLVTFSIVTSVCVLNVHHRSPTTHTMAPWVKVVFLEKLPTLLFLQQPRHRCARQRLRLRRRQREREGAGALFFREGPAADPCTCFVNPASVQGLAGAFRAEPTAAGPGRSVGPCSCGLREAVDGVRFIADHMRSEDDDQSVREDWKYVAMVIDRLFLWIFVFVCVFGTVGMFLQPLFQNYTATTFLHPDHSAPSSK
UniProt P12391, whole entry, looked up: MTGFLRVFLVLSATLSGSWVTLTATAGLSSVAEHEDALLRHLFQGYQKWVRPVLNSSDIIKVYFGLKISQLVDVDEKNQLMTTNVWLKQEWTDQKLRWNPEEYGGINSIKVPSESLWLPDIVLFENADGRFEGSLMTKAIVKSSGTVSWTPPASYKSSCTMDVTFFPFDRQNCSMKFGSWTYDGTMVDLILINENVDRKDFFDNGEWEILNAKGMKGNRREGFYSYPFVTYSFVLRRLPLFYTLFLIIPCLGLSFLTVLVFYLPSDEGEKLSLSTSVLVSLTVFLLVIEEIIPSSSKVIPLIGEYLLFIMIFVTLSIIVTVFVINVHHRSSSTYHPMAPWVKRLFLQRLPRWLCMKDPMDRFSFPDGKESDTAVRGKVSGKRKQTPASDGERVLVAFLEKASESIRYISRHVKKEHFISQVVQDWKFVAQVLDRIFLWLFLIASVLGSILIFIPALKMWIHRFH
UniProt P43143, whole entry M241L/F253L/V303I/V320I/I327V/A333T/K339T, looked up: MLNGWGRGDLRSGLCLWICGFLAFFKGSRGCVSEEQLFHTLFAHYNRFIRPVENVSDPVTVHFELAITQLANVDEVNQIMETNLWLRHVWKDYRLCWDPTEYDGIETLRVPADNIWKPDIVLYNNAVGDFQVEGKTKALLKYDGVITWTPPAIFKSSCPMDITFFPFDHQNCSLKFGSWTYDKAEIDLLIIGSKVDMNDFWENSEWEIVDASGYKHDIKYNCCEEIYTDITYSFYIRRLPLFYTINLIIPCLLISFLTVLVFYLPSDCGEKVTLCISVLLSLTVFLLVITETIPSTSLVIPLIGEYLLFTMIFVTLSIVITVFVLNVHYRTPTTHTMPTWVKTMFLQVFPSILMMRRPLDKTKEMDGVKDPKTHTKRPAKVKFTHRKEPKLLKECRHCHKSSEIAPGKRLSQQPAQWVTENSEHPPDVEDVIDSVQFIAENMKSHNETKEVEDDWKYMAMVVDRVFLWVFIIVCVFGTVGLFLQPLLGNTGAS

| SMILES | tested on | test | system | conditions | endpoint | result |
| --- | --- | --- | --- | --- | --- | --- |
| CCOC(=O)c1c(-c2ccc(Cl)cc2Cl)n(-c2nc(-c3ccc(Cl)cc3)c3c(NC(=O)c4ccccc4)nnc-3[nH]2)[nH]c1=O | – | – | male Wistar rat | intraperitoneal | LD50 | 100 mg/kg |
| COP(=O)(OC)Oc1ccc([N+](=O)[O-])cc1Cl | Acetylcholinesterase (Ache, Rattus norvegicus, UniProt P37136) | enzyme activity, inhibitor | rat, postnatal day 70, rat brain homogenate | 15 min, 37 °C | IC50 | 0.139 µM |
| Cc1nn(-c2ccc(Cl)cc2)c2c1C(c1ccc([N+](=O)[O-])cc1)C(C#N)=C(N)O2 (stereo not shown) | Vero E6 | MTT | – | 25 µM | viability | 62.3% |
| N=C(N)c1ccc(C(NC(=O)COCC(=O)NCCCOCCOCCOCCCNC(=O)CCCC[C@@H]2SC[C@@H]3NC(=O)N[C@@H]32)P(=O)(Oc2ccccc2)Oc2ccccc2)cc1 (stereo partly shown) | Suppressor of tumorigenicity 14 protein (ST14, Homo sapiens, UniProt Q9Y5Y6) | enzyme activity, inhibitor, fluorogenic substrate | – | 4 h preincubation, pH 8.0, added: 0.2 nM enzyme, spectrafluor-tPA substrate | IC50 | 3.5 ± 0.6 µM |
| Cc1cn([C@@H]2CC[C@H](OC(C(=O)O)P(=O)(O)O)C2)c(=O)[nH]c1=O (relative stereo) | DNA polymerase beta (POLB, Homo sapiens, UniProt P06746) | enzyme activity, inhibitor | – | added: activated calf thymus DNA | IC50 | > 500 µM |
| CNc1ccccc1C(=O)O[C@H]1[C@@H](O)[C@H](n2ccc(N)nc2=O)O[C@@H]1COP(=O)(O)OP(=O)(O)OP(=O)(O)O | cya, adenylate cyclase domain (Bordetella pertussis, UniProt P0DKX7) | inhibitor | – | – | Ki | 1.3 ± 0.1 µM |
| CNC(=O)[C@H]1[Se][C@@H](n2cnc3c(NCc4cccc5ccccc45)ncnc32)[C@H](O)[C@@H]1O | Adenosine receptor A2a (ADORA2A, Homo sapiens, UniProt P29274) | binding | HEK293 membranes | added: [3H]CGS21680 10 nM | Ki | ~0.2 µM |
| COc1ccc(CCN(C)CCCCNC(=O)c2cc(Br)cc(OC)c2OC)cc1OC | Sigma-2 receptor (Cavia porcellus, UniProt H0V073) | binding | brain membranes | (+)-pentazocine masking, added: [3H]DTG 500 nM | Ki | 2.13 ± 0.24 µM |
| O=c1[nH]cnc2c(CNCCCP(=O)(O)O)c[nH]c12 | Hypoxanthine-guanine-xanthine phosphoribosyltransferase (Plasmodium falciparum, UniProt P20035) | enzyme activity, competitive inhibitor, spectrophotometric | – | – | Ki | 0.01 µM |
| NCCCCCC(=O)Nc1nnc(S(N)(=O)=O)s1 | alpha-carbonic anhydrase (Enterococcus faecium, UniProt Q3XYE8) | CO2 hydration, inhibitor, stopped-flow kinetics | – | – | Ki | 0.0259 µM |
| N#Cc1c(-c2ccc(Cl)cc2Cl)n(-c2nc(-c3ccc(Cl)cc3)c3c(NC(=O)c4ccccc4)nnc-3[nH]2)[nH]c1=O | SK-MEL-2 | SRB | – | – | CC50 | > 100 µM |
| O=C(N[C@H]1CCOC1=O)C1CCCC1 | HTH-type quorum-sensing regulator RhlR (rhlR, Pseudomonas aeruginosa, UniProt P54292) | reporter gene, agonist, rhlI-lacZ reporter | Escherichia coli reporter strain | – | EC50 | 1.58 µM |
| CC[C@H](C)[C@@H]1NC(=O)[C@H](CCC(=O)O)NC(=O)[C@@H]2CCCN2C(=O)[C@H](Cc2c[nH]cn2)NC(=O)[C@H](CCCNC(=N)N)NC(=O)[C@H](C(C)C)NC(=O)[C@H](CC(N)=O)NC(=O)[C@@H]2CSSC[C@H](NC(=O)CN)C(=O)N[C@@H](CSSC[C@@H](C(N)=O)NC1=O)C(=O)N[C@@H](CO)C(=O)N[C@@H](Cc1c[nH]cn1)C(=O)N1CCC[C@H]1C(=O)N[C@@H](C(C)C)C(=O)N2 | Nicotinic acetylcholine receptor alpha6/alpha3/beta2/beta3 (Rattus norvegicus, UniProt P04757+P12390+P12391+P43143) | ion current, antagonist, two-electrode voltage clamp | Xenopus oocytes | rat, added: ACh 100 µM | IC50 | 0.111 µM |

For quick reference, copied from above:
| SMILES | tested on | test | system | conditions | endpoint | result |
| --- | --- | --- | --- | --- | --- | --- |
| COc1ccc(CCN(C)CCCCNC(=O)c2cc(Br)cc(OC)c2OC)cc1OC | Sigma-2 receptor (Cavia porcellus, UniProt H0V073) | binding | brain membranes | (+)-pentazocine masking, added: [3H]DTG 500 nM | Ki | 2.13 ± 0.24 µM |
| CNC(=O)[C@H]1[Se][C@@H](n2cnc3c(NCc4cccc5ccccc45)ncnc32)[C@H](O)[C@@H]1O | Adenosine receptor A2a (ADORA2A, Homo sapiens, UniProt P29274) | binding | HEK293 membranes | added: [3H]CGS21680 10 nM | Ki | ~0.2 µM |
